Measurements of several laboratories.
Each numbered part is a random draw from the data of one study; scales do not carry over between parts. Positions count from the first letter of the parent shown.

Series 1
Target: Sal-like protein 4, full length isoform B (SALL4, Homo sapiens, UniProt Q9UJQ4-2, residues 1-616)
Technique: universal PBM
Molecule type: double-stranded DNA, one strand shown
Sample: in vitro
Concentration: not given
Notes: 8-mer, flanks averaged, mean of replicates
Reading: higher = stronger binding
Target sequence (chain): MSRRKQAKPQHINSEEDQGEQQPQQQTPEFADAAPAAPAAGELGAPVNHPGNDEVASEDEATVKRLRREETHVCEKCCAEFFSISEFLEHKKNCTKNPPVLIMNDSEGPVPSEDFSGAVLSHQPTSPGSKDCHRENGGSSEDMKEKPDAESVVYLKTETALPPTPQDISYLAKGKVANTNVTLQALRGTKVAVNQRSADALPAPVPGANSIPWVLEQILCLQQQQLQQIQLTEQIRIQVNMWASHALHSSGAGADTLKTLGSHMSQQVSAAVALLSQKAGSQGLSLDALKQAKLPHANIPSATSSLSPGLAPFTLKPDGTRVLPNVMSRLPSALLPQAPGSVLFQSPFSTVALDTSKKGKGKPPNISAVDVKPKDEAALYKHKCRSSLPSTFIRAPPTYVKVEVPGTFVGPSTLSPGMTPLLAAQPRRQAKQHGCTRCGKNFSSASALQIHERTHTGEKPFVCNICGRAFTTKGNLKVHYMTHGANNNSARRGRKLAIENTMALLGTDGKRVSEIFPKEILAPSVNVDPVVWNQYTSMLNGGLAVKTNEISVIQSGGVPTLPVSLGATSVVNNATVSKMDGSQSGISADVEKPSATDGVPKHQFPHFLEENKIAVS
| Strand | E-score |
| --- | --- |
| ATTGAGAC | 0.0788 |
| ATGTTAAG | 0.103 |
| TAAAAGGA | 0.209 |
| TAGCCAAA | 0.173 |
| CAGACCCA | -0.145 |
| CGAATATC | 0.137 |
| CCCTTTAG | -0.0994 |
| ACTTCCTG | -0.0983 |
| CCAACTCC | -0.152 |
| ACGCTGAG | -0.199 |
| ACCAGCGC | -0.193 |
| ACTAAACC | 0.00645 |
| CTGAGAAG | -0.151 |
| AGTGTAAC | 0.00414 |
| GTCAAGCA | -0.258 |
| AGGGGAAT | -0.0979 |
| ATGACTGG | -0.0781 |
| TCAAGAAA | 0.199 |
| ACGCGCGG | -0.31 |
| AACATACC | 0.121 |
| CCTATCCA | -0.0878 |
| AATATCGA | 0.301 |
| CCCTTACC | -0.0686 |
| ATGCCCCC | -0.26 |
| AATAATCT | 0.367 |

Series 2
Target: RNA binding protein fox-1 homolog 2, RRM domain, GST-SBP tag (RBFOX2, Homo sapiens, UniProt O43251-10, residues 100-194)
Technique: RNA Bind-n-Seq
Molecule type: RNA
Sample: in vitro
Concentration: 365 nM
Notes: natural RNA segment, single round, ends assumed
Relative to: no-protein control
Reading: higher = stronger binding
Shared flanks, not repeated: GGGAGUUCUACAGUCCGACGAUC … UGGAAUUCUCGGGUGCCAA
Target sequence (chain): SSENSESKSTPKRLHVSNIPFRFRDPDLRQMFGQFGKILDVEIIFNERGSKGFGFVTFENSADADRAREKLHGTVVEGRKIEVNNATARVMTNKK
| Strand | RBNS enrichment (R) |
| --- | --- |
| UCGGGCUUAGCACCUGCCCUUCUCACCCAUGGCCCACCCAGGCCUGGAGCUGGGAUGCAAUGUAGGCUGAGGGAAAGACGUCAGGUUCCUUUAAUCACAGUCACUGUUUG | 0.713 |
| AGGGUAAGCUAGAGAGAAAAAGAAAGAACUGUCCGUCCCCCUUCCGCCUUCUCCCUUCUCUCACCCCCACCCUAGCCUCCACCAUCCCCGCACAAAGCGGCUCUAAACCU | 0.491 |
| GUUUCUUUAUUAGAUAAGAGUGUAUUACCAUUAAAGUCAUUAGUAUAAUAUUGCUUUCAAAAAGAAAUGGUAGACAAAACUAUAAUCCAGCAUCUUUUAUUGCAUUGGAA | 0.644 |
| AAUUAUAGGCUGUGGGCAGAGGGUCUGAAAGGUGGGCUUUGGGGUAGUGCCCAAGCCUGGUCGUGUUGCCAGGAGUGGUGACAAGAAAUGCAGCUUACAUCAAACGAACA | 0.546 |
| UUAACAAGACUUUUUGUACUGAAAACAAUUUUUUUGAAUCUUUCGUAGCCUAAAAGACAAUUUUCCUUGGAACACAUAAGAACUGUGCAGUAGCCGUUUGUGGUUUAAAG | 0.302 |
| AGAAGGGCUGGGGCCGGGGCUGAGGGUGCCCUUUUCCAGCCUCAGCCUACUCCGCUCACUGAACUCCUUCCCCACUUCUGUGCCACCCCCGGUCUAUGUCGAGAGCUGGC | 0.35 |
| GGACCUUAAAGUUACUGAGUUUAAACUACAAAUUGUAACAUCAUUACUGAACAUGUCCGCAUCAACCCUCUGAGAAUAACUUGGUCACUUUAUGAAGGGGCGUUUUUAAG | 0.362 |
| UUGCCAGAUCACAUGGCUGGAUGUGAUGUGGGGUGGGGGUGGGGUCAUAUCUGAGACAGCCCUCAGCUGAGGGCUUGUGGGACAGUGUCCAAGCCUCAGGCUGGGCUCAU | 0.675 |
| UGUUUUUUUAGACAAGGCUAAACCUGAAUGACUCUACGUAUCUAUAGUUUCACUGCUCAUAUACCAGCUGCUACAAGAAAAACCAUGACUUGUAAGUUUGUCUUUACUCC | 0.471 |
| UGUUUGGUUGGGUUUUUGUUUGUUUGUUUUUUGUUUUUGCUUUUAUUGCCAAGAGGUGCUUGUUUUAAAAGUAUGUUUAAUAAAAUGAAAUUCUAAAGUUAGAAGUGUUC | 4.13 |
| GUUAAAUGAGGCAUUGUUUUCUUUAUUUAAGAUUGAGUUAUGACUUUAAAUGUUUAUGAGCUAGUUUAUGCCUCGGAAGACAUAAGGUUUCCCAUUCCAAUUUGAAUCUU | 0.514 |
| GAGAGAUGACGGGAGUGCGUUUCUCUGGGUUUGAUCUCCAUCCUGUUUUCUCCCAGACACACCACACCUACCUUGGGGGAAUGCCGUUGCCUGUUCCACCCCUUUGUUCA | 6.55 |

Series 3
Target: RING finger protein unkempt homolog, zinc fingers 1-6, GST-SBP tag (UNK, Homo sapiens, UniProt Q9C0B0, residues 30-357)
UniProt Q9C0B0, sequence (30-357, looked up): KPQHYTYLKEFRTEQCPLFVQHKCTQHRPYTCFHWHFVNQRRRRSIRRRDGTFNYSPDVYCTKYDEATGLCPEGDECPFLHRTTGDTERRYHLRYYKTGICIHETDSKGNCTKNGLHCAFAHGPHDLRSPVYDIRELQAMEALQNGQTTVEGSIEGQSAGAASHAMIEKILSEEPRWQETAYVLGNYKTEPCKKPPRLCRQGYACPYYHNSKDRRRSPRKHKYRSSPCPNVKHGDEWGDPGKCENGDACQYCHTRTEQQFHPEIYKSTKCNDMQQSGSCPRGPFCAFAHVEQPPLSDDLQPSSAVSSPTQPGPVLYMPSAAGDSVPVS
Technique: RNA Bind-n-Seq
Molecule type: RNA
Sample: in vitro
Concentration: not given
Notes: RNA with constant flanks, ends assumed
Relative to: input RNA pool
Reading: higher = stronger binding
Shared flanks, not repeated: GGGAGUUCUACAGUCCGACGAUC … CAACAGAGGAUUGAGCAUCA
| Strand | bound/input enrichment |
| --- | --- |
| UUUAUGACAUGUCCCUUUAUAUUGAAUGCUGUCACAAAGAAUCUGGGAUUAUAUUAUGACAACCGAAUUCGCAUGUACAGUGAAAGAAGAAUCACUGUUCUUUACAGCCUAGUUCAAGGA | 0.211 ratio |
| ACAAAUUCUAAGUCGGAGGAAGACAAGCAGCUAGCCAAUUCUUUAGAGAGCGUAGGGCCAACCGAUUACAUUCUCCCAAGCUGUGGGAUUAUUGUGUCAGCACCUCGAUUAGGCAGUCGG | 0.438 ratio |
| UGCUUCCAAACACUGACAGGGAUCAAGUUUGUGGUCCUGGCAGACCCUAGGCAAGCUGGAACCGAUUCUCUUCUCCGAAAAAUUUAUGAAAUUUACUCAGACUUUGCCCUCAAGAAUCCA | 1.32 ratio |
| CCGUCUAUAUAUGUGUGAAUAAUGUAAGUAUUUUACAGCAUGUUGAUUUUUAAAUUAACGCCGUAAAUGCUGUAAAAUAGAUUUAUAUUCAGUUAACCGCUUUCAGUUGAUUUUUUGAAA | 0.419 ratio |
| UACUUCUGGAUUCCAGGAAAAAUUCUUAUAACUAAAAUCAAUAUGUUUUAAAAGUCACCAUACCGCUUCUUACUAGUUAUCUUUUAAAGACUGUGGUGGUCUUAAAAGGGAACAAAAGCU | 0.874 ratio |
| UUCACAAGAAUGUUUGCUGACCCUCAUGGCAAGAGAGUAUUCAGCAUGUUUUUGGAGACUCCCGUGGAUUUCAUACAAGUCCACAAAGAUGAUCUUCAAGAUUGGUUGUUUGUACUGCUG | 0.117 ratio |

Series 4
Target: CCNF, cyclin fold, Cln2 fusion (human)
Technique: yeast growth competition, sequencing
Sample: yeast
Notes: strong parent motif
Relative to: not given
Reading: higher = stronger binding
Starting sequence: PKMYT1 docking peptide (human); SFEPRNLLSLFED
| Substitution | normalised enrichment score |
| --- | --- |
| F11S | -0.978 |
| R5M | -0.518 |
| S9N | 1.26 |
| E12G | 0.25 |
| L10S | -0.69 |
| L7C | -1.02 |
| P4Y | -0.899 |
| P4V | 1.27 |
| F2S | 0.523 |
| L7V | -0.546 |
| L8G | -0.391 |
| L7T | -0.423 |
| L10V | 0.36 |

Series 5
Target: Max dimerization protein 1, bHLH-zipper, MAX partner unstated (MXD1, Homo sapiens, UniProt Q05195, residues 56-136)
Technique: protein-binding microarray
Molecule type: double-stranded DNA, one strand shown
Sample: in vitro
Concentration: not given
Notes: k-mer, scored over probes, only values ≥0.25
Reading: higher = stronger binding
Residues (chain): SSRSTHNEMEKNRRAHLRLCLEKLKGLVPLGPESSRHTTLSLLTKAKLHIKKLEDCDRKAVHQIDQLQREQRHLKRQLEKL
| Strand | E-score |
| --- | --- |
| CGGCATGA | 0.26 |
| AGACCATG | 0.289 |
| CATGTTTA | 0.399 |
| AACGTGCG | 0.419 |
| CATGGCAG | 0.321 |
| AGTCATGC | 0.353 |
| CGCCGCGC | 0.3 |
| AATGTGCG | 0.334 |
| GTGGGACA | 0.312 |
| CACGCGTC | 0.42 |
| CCCCACGA | 0.301 |
| ATGCACGA | 0.348 |
| ACATGCGA | 0.393 |

Series 6
Target: ABI1, truncated, D143A, DHFR fusion (Arabidopsis thaliana)
Technique: DHFR PCA, deep sequencing
Sample: yeast
Notes: methotrexate growth selection, single substitutions
Together with: (+)-ABA 0.032 µM
Relative to: wild-type fitted maximum
Reading: higher = stronger binding
Starting sequence: PYL1, truncated, DHFR fusion (Arabidopsis thaliana); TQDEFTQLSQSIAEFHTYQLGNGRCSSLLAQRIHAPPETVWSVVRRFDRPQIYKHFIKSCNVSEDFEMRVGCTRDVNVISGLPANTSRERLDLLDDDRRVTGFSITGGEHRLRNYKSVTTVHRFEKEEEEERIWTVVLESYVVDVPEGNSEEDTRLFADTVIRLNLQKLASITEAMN; partner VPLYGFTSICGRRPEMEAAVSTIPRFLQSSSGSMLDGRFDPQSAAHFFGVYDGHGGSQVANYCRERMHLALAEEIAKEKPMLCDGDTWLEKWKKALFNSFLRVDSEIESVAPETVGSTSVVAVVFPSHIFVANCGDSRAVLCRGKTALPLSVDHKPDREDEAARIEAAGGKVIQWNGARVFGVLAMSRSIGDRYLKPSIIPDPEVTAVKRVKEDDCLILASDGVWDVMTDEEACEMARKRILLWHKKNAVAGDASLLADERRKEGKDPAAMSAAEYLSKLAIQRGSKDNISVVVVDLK
| Substitution | relative binding score [%] |
| --- | --- |
| Y53W | 46.6 |
| Y115V | -0.0431 |
| L8A | 8.26 |
| S9R | 56 |
| K54D | -5.18 |
| R32C | 17.7 |
| I172M | 1.9 |
| E127N | 41.7 |
| R24P | -0.287 |
| V136P | -0.724 |

Repeated from above (series 4):
| Substitution | normalised enrichment score |
| --- | --- |
| R5M | -0.518 |
| S9N | 1.26 |
| E12G | 0.25 |
| L10S | -0.69 |
| L7C | -1.02 |
| P4Y | -0.899 |
| P4V | 1.27 |
| F2S | 0.523 |
| L7V | -0.546 |
| L8G | -0.391 |
